Assay results collected from several papers.
Numbered parts are unrelated; each lists some results of a single study.

Sample 1 — method: RNA Bind-n-Seq; form: RNA; matrix: in vitro; tested at: 365 nM; baseline: no-protein control; direction: higher = stronger binding; endpoint: RBNS enrichment (R)
Target: RNA binding protein fox-1 homolog 2, RRM domain, GST-SBP tag (RBFOX2, Homo sapiens, UniProt O43251-10, residues 100-194)
Notes: natural RNA segment, single round, ends assumed
Target sequence (chain): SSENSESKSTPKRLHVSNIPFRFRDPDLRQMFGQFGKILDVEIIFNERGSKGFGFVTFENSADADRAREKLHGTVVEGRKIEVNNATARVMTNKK
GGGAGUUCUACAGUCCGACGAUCAGAGACCCACUGUAAUUGAUGCAUUGUGGCCCCUGAUCUUCCCUGUCUCACACUUCUUUUCUCCCAUCCCGGUUGCAAUCUCACUCAGACAUCACAGUACCACCCCAGGGUGGAAUUCUCGGGUGCCAA: 0.533
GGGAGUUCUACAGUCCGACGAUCCCCCAAAGUCAGAGGUGAUUUGAUUUGGGGAAGACUGAAUAUUCACACCUAAGUCGUGAGCAUAUCCUGAGUUUUACUUCCUUAUGGCUUGCCCUCCAAGUUCUCUCUCUUGGAAUUCUCGGGUGCCAA: 0.348
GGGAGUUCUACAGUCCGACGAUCUAGGAGGUAUCCUUUGGAUGCUGAAGUGUUGGGAUUUUGAGGACAUGCGGAUGAUUUAUGAGAAUAGAGGGGCAGAGUUUGUGAAGUCUAGGGUUUUUUGUCCAGUGGGUUGGAAUUCUCGGGUGCCAA: 9.48
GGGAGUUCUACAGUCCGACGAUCGAGUCUAUGCCCUAUUGGCCAUCCUUAGUUUUCUUACGCAAAUUUAUACUGUUCAAGCAGCUCCAACGUCCAGUCUCAACACAGCGCGCCUUCGGCCAGGCAGCGAUCCAUGGAAUUCUCGGGUGCCAA: 0.531
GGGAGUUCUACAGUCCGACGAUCUUAGUGGGAAAACGACUUCUGUUUUGACAUGUAGAGUUUGAAGAUUAGGAGAUUGACAGAUGAUGUUGUCUGACAGGUGGUUGGCUGUCCCAGAGAGAGAUAGAGACUCCUGGAAUUCUCGGGUGCCAA: 0.441
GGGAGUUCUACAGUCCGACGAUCGAAGAAAAAAGUUGGCAUUUCUUGGUCCUCCGUUCAUAACACAAAGCAGAGUAGUAUUUUUAUAUUUAAAUGUUAAAAACAAAAAAGUUAUAUAUAUAUGGAUGUGUGGAUGGAAUUCUCGGGUGCCAA: 0.83
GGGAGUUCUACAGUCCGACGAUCAUUAAAGGCUUUUCUUACUAUGUUUUAACCAAAGAUGUGGAGCAAUCCAAGCCGCAUAUCUACUGCAUUAAAUUUGUCCAUUUGGUUAUUCAUAAUCGGGUAUUGCAUUUUGGAAUUCUCGGGUGCCAA: 1.52
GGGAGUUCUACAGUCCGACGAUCUGACUUUACAUGAAACAAGUUCAGUUUCGUUUACCAGCCUUUCUGGGUUCCCUUUGACUCCCCUGCUAACCCCACAUAAUUGAGAAUGUUUUGACCAAGUGUAAAAAUAGUGGAAUUCUCGGGUGCCAA: 0.617
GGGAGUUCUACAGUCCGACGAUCAGAGUUUGUUAUUGAAAUAGAUGUUGCCCAUGAAGAAUUCUCCUUCCUGGAUUGACUCUUAAUCAUCAGGCAUCAUUCCUGGUUUGCUUCUCUACGAAUCUCAAUUCCAAUGGAAUUCUCGGGUGCCAA: 0.443
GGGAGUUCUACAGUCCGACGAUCGAUGGUGUAGGAGAAGGCUUUCAAGAAUGACGGAAUAAGAGACCUGUUUUAAAAAGGAACUGCAGCAAUCUUUGAAAGACUUCCAAAGAAUGUUAGAGCACAGUACAUAAUGGAAUUCUCGGGUGCCAA: 1.15
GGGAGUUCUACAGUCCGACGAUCAAAAAAAAAGAUCUGCUCUGUAGAAAGAAUUGUCUGCCAUUACAGGGUCAAGAAAAUGAAUGCGCCAAUAACAGUAAGAGCUGUGGAAGACACCCAUACCUGUAUAUACAUGGAAUUCUCGGGUGCCAA: 4.22
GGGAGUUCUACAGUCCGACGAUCGGGAGAUGGAUCACUGGGUAACAGCACUUGUCACCAAGCCCAACAGCCCAGGCUCAGUUCUUGGGACCCACAUGGUAGAAGGAGUGUACCGACAUUCCCCCAAGUUGUCCUGGAAUUCUCGGGUGCCAA: 0.263

Sample 2 — method: competition protein-binding microarray; form: double-stranded DNA, one strand shown; matrix: in vitro; tested at: 2 µM; with: Cbf1 competitor, 0.05 µM; direction: higher = stronger binding; endpoint: fluorescence intensity
Target: Phosphate system positive regulatory protein PHO4, full length, GST-tagged (PHO4, Saccharomyces cerevisiae, UniProt P07270, residues 1-312)
Notes: whole 60-bp probe, lowest competitor level
Target sequence (chain): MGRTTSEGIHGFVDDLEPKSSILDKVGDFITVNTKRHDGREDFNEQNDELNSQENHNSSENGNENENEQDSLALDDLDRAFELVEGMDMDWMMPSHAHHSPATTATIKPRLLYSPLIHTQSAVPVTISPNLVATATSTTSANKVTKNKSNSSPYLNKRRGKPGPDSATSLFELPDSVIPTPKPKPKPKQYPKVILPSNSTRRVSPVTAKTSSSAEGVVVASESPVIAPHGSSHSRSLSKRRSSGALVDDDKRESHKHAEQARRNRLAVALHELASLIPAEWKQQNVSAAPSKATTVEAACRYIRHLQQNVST
CGAAATGGCACTGACCATGCGGAGCCAGCGCCGGAAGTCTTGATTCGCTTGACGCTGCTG: 5690 a.u.
AGAAATTTTGGCCGCCATGTGGTCTTCTACAATTATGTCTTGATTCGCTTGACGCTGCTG: 10200 a.u.
ACAAAAGAACATCGGCACGCAATGTTGCTTTGACAAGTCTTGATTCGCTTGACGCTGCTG: 7110 a.u.
GACCGTCAAAGCGTCCACATGAGATCCAATGACACCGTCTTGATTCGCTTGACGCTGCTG: 5720 a.u.
CATGAAATTGCTTACGTCGTGCCAGATTACATATAGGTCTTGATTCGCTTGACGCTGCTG: 9840 a.u.
TATCTTGTCATCCACCATGTGTCTTAGTCGTTGATAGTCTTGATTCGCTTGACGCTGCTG: 9080 a.u.
AGCGGCACATAATGCAGCGTGCGGAAGTGTCAGTAGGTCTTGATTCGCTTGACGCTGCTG: 9360 a.u.
AAAGCGGTAATTTGAGCCGTGGGTGCAGATATCTATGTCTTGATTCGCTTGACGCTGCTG: 5980 a.u.
GGGAAAAAAATTGACCACGTGACTCGAGAATCAACTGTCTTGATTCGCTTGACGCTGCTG: 16800 a.u.
TGTTATTAACGTACCCACGCACAGTGGTGCTATCCAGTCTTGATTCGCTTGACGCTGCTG: 8570 a.u.
AAATTACTAAGTTGCTCAGTGGGTGACGCCGTATGAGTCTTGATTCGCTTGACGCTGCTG: 3490 a.u.
CCTCACTCTTTTCCTCTCGTGACGGATTCAACATCAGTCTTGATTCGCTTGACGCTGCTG: 6090 a.u.
CCTTGTTCCGGAGCGCACATGGCATTTCAAGGTCAAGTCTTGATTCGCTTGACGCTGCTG: 10100 a.u.
CGCCGGAAGCGGTGCCTCGTGGCTTGGGATCTCTCCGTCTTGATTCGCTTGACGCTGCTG: 11300 a.u.
GTCTTGTCTCATTGAAATGTGGGTGTCCCCACTTCAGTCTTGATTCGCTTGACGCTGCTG: 6050 a.u.
GTCTTGTCTCATTGTTATGTGGGTGTCCCCACTTCAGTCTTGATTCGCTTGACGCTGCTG: 5240 a.u.
AAATTACTAAGTTGACTTGTGGGTGACGCCGTATGAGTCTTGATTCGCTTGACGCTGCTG: 4420 a.u.
CAATGGCTCAGTAACCTCGTGATGGAAAAAGGGAAAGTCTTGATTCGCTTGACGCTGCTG: 9390 a.u.
CTTCTGTAAATTTGCGAAGTGGGTGGACGCGCCCCGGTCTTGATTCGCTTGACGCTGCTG: 3960 a.u.
CTTTCCCGATCTTGGGCTGTGGGTGTAGCACATTTGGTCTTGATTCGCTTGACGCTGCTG: 4000 a.u.
CGGGGTTAAGTTTGTAGTGTGGGTGGCTTGCAGCAGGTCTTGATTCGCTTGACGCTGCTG: 5910 a.u.
CTTTCCCGATCTTGTGGCGTGGGTGTAGCACATTTGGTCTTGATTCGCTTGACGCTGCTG: 7540 a.u.
ATACCGGCTCGATAACATGTGTCAAATTCTCACCGGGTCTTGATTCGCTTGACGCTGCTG: 8980 a.u.
TTCCGTCTTGGGAGTCAGGTGGAAGTAACCTGCGGGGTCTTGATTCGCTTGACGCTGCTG: 3840 a.u.
GCAGCTGACAGAAAACATGTGCTTTGACTTGGGGACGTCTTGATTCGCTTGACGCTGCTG: 11700 a.u.

Sample 3 — method: universal PBM; form: double-stranded DNA, one strand shown; matrix: in vitro; tested at: 600 nM; direction: higher = stronger binding; endpoint: E-score
Target: Sal-like protein 4, full length isoform A (SALL4, Homo sapiens, UniProt Q9UJQ4, residues 1-1053)
Sequence of UniProt Q9UJQ4 (whole entry, looked up): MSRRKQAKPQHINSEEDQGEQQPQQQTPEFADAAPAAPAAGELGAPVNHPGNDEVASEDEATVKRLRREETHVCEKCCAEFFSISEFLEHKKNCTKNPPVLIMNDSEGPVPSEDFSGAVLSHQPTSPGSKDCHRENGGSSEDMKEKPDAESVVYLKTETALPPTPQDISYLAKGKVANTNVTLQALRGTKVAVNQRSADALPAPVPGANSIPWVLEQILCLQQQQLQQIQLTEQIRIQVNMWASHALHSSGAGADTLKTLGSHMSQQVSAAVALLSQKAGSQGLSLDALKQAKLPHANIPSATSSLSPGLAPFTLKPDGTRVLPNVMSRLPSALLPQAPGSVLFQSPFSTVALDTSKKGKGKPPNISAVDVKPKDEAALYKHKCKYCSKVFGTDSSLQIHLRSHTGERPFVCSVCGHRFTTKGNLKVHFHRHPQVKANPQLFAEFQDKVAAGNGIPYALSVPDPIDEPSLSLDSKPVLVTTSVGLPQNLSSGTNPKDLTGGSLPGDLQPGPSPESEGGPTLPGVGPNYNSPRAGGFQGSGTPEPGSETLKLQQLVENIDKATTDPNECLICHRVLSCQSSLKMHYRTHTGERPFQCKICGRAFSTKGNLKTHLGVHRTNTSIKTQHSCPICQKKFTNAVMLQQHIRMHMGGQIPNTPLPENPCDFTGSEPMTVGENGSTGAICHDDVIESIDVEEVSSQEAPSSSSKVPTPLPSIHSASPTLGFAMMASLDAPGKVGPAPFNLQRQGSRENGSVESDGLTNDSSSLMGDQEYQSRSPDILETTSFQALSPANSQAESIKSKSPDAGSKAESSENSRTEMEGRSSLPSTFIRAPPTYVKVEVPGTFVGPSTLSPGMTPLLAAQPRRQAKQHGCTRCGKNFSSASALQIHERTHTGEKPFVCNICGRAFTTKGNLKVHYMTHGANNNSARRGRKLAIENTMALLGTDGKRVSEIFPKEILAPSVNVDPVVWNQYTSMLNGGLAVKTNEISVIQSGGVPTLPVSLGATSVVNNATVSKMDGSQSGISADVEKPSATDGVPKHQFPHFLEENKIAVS
Notes: 8-mer, flanks averaged, mean of replicates
CATGACCA: -0.0585
GTAAAGGA: 0.147
CTGGTTCA: -0.0598
AGCGGTTG: -0.252
CAAATCAG: 0.235
CGTTCACA: 0.0962
CCTAAACC: -0.115
GCCGCGGC: -0.173
AAATTTGA: 0.312
ATCCTAAC: 0.0853
AGAAGTTA: 0.203
GGTCCCTA: -0.183
AGTTAGAT: 0.199
CAACGAAA: 0.131
CACTTGGA: 0.0113
GCCTGCCA: -0.233
AATGATCG: -0.0435
ACAGTCAA: 0.0331
CGCCAGTC: -0.247
CCGATGAG: -0.111
ATATAGTC: 0.336
ATTAACCA: 0.152
GTGCGCGA: -0.196
ACCGGTCT: -0.235
TACAAACA: 0.24

Sample 4 — method: RNA Bind-n-Seq; form: RNA; matrix: in vitro; tested at: 1 µM; notes: whole 134-nt RNA, ends assumed; with: 150 mM KCl; baseline: input library; direction: higher = stronger binding; endpoint: log2 enrichment
Target: Ras GTPase-activating protein-binding protein 1, C-terminal RGG region (G3BP1, Homo sapiens, UniProt Q13283)
Sequence of UniProt Q13283 (whole entry, looked up): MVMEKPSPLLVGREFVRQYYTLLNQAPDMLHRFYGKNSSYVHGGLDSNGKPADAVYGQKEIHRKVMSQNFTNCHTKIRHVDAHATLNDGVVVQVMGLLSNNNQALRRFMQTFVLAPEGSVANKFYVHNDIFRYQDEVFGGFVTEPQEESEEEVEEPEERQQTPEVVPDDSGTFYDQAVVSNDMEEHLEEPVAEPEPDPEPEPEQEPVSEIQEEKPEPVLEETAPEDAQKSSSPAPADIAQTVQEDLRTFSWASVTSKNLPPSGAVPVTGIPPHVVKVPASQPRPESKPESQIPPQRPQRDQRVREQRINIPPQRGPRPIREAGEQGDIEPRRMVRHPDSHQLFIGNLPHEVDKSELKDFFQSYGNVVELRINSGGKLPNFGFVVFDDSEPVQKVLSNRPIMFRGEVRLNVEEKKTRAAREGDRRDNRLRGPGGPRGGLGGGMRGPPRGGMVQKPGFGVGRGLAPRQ
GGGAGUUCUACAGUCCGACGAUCGCAGGAAGUAAAAACAAAUGGAAAUGCUUCGGAUAGUGGCAGGGGUGGGGGUUGCUAAGGAAAAGGUGGGAUGGGAGUGGGUAAAGAGUUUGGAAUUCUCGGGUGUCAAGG: 1.71
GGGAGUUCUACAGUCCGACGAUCUCCUGUGCUACACAUCGUAUGUACCGAAUCGGGGUUUGGGGAAAAAAAGGGGAAAGGGGAAAGUAUUAUGUUACGCCGUUCGGAUCUGCAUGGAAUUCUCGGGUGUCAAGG: 2.29
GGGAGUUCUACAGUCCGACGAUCAAGUCCUGUGCUACACAUCGUAUGUACCGAAUCGGGAAAAAAAGGGUUUGGGAGGGAAAGUAUUAUGUUACGCCGUUCGGAUCUGCACUUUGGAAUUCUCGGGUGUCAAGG: 1.15
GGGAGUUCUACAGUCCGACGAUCCACAGACAACACGCACCCACACAGACACAGAGGGAAGGGGUUGGGAUGGGGACAGGGUGCACAGCAGGGCGGGGUAGGAUCCCAGCCCCUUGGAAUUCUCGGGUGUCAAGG: -0.901
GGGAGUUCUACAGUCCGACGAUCUGGGAGGUGGAUUUUGUUUAUUUUUUUAGCUCAUUUCCAGGGGUGGGAAUUUUUUUUUAAUAUGUGUCAUGAAUAAAGUCGUUUUUGAAAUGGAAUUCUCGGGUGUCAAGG: 3.15
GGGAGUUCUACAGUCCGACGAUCAGUCCUGUGCUACACAUCGUAUGUACCGAAUCGGGUGGGUUUUUGGGUUUUUUUGGGAAAGUAUUAUGUUACGCCGUUCGGAUCUGCACUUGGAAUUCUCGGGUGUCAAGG: -0.276
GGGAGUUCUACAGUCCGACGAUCUGGGAGGUGGAUUUUGUUUAUUUUUUUAGCUCAUUUCCAGGGGUGGGAAUUUUUUUUUAAUAUGUGUCAUGAAUAAAGUUGUUUGUGAAAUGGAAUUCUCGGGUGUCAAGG: 2.55
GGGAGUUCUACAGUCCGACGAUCCGGGAGGUGGAUUUUGUUUAUUUUUUUAGCUCAUUUCCAGGGGUGGGAAUUUUUUUUUAAUAUGUGUCAUGAAUAAAGUUGUUUUUGAAAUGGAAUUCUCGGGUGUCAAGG: 3.39
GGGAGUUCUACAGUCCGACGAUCGUGCUACACAUCGUAUGUACCGAAUCGGGGAAAAAAAGGGGUUUUUUUGGGGUUUUUUUGGGGAAAGUAUUAUGUUACGCCGUUCGGAUCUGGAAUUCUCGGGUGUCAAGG: 0.434
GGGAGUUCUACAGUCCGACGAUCUCGGCUACACUGCCCGGAGAAUUCUCAAUGAGGAUGGCAGCCCUAACCUGGACUUCAAGCCUGAAGACCAGCCCCAUUUUGACAUCAAGGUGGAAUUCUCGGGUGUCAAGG: -0.873

For quick reference, copied from above (sample 2):
CTTCTGTAAATTTGCGAAGTGGGTGGACGCGCCCCGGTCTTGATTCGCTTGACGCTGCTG: 3960 a.u.
GGGAAAAAAATTGACCACGTGACTCGAGAATCAACTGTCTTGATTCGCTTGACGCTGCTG: 16800 a.u.
ATACCGGCTCGATAACATGTGTCAAATTCTCACCGGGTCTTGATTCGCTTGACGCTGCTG: 8980 a.u.
CTTTCCCGATCTTGGGCTGTGGGTGTAGCACATTTGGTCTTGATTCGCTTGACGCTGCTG: 4000 a.u.
CGCCGGAAGCGGTGCCTCGTGGCTTGGGATCTCTCCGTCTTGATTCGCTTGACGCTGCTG: 11300 a.u.
AGAAATTTTGGCCGCCATGTGGTCTTCTACAATTATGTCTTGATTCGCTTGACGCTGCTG: 10200 a.u.
